Assay results from different studies.
Lines come from different studies, so protocols differ. ± gives the spread as reported.
DHX36: DHX36 53-105 (Homo sapiens, UniProt Q9H2U1)
UniProt Q9H2U1, sequence (whole entry, looked up): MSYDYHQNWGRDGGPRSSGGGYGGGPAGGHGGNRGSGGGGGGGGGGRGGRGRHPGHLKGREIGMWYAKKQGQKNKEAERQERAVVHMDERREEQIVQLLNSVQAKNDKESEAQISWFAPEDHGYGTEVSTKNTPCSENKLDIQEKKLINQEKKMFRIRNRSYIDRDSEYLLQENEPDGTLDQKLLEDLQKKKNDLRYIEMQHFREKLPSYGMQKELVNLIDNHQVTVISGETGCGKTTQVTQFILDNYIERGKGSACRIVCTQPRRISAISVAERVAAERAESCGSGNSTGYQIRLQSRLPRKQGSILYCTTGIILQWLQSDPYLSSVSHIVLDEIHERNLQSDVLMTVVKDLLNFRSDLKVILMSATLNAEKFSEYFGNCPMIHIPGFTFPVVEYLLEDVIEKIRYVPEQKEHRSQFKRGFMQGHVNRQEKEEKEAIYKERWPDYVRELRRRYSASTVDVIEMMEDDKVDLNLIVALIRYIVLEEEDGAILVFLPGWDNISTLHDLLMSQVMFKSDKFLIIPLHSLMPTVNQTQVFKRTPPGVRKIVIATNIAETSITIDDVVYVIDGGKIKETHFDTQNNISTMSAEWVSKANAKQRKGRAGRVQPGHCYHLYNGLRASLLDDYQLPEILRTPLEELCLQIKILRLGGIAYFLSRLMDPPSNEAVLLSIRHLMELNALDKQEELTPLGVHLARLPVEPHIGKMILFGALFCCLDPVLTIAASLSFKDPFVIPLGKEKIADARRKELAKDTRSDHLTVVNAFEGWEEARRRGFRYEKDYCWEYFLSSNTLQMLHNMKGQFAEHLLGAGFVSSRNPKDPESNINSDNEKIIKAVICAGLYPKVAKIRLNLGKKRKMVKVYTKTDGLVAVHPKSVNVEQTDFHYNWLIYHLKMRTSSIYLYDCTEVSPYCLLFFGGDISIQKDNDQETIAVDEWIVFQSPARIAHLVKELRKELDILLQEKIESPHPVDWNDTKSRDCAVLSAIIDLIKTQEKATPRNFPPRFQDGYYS
Putative PAS/PAC sensor protein full length assumed: Putative PAS/PAC sensor protein full length assumed (Nakamurella multipartita, UniProt C8XJT7)
YBX1: YBX1 51-140 (Homo sapiens, UniProt P67809)
UniProt P67809, sequence (whole entry, looked up): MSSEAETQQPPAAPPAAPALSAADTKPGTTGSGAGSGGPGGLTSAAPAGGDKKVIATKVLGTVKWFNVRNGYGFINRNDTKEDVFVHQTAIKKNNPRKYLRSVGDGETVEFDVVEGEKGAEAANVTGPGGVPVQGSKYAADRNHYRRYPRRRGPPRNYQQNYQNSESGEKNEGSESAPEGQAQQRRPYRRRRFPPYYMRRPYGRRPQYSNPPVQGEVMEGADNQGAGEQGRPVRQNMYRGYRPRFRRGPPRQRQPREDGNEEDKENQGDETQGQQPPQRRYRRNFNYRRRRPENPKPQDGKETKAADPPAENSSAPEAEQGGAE
hel308: hel308 1-690 (Methanothermobacter thermautotrophicus, UniProt O26901)
UniProt O26901, sequence (whole entry, looked up): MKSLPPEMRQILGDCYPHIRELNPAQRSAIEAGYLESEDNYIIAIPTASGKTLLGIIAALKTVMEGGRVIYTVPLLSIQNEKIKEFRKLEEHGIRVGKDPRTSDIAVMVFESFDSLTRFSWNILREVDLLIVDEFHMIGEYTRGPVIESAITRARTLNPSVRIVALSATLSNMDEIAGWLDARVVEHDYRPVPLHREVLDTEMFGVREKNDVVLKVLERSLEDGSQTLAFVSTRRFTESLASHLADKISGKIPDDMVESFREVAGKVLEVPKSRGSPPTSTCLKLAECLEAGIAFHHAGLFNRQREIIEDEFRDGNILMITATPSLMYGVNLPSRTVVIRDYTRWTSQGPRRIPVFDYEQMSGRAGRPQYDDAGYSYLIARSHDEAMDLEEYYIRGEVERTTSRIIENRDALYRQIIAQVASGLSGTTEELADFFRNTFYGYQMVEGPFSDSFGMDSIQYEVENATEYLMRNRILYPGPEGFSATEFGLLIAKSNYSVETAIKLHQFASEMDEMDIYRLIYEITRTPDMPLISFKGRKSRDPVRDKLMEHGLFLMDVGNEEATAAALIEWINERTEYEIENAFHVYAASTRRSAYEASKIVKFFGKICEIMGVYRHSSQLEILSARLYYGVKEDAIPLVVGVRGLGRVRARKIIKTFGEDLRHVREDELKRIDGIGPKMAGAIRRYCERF
AP2/ERF domain-containing protein: AP2/ERF domain-containing protein 1-442 (Vitis vinifera, UniProt A5C831)
UniProt P60335, sequence (whole entry, looked up): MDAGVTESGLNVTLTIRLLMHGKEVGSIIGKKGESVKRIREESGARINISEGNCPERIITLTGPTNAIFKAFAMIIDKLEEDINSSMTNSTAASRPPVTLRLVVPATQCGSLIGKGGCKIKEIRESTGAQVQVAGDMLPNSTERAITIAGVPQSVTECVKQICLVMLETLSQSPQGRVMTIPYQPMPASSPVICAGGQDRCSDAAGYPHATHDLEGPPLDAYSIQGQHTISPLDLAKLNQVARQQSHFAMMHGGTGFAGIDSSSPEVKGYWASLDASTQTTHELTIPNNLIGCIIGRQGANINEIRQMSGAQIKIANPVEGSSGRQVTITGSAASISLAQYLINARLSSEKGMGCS
UniProt Q6Z312, sequence (whole entry, looked up): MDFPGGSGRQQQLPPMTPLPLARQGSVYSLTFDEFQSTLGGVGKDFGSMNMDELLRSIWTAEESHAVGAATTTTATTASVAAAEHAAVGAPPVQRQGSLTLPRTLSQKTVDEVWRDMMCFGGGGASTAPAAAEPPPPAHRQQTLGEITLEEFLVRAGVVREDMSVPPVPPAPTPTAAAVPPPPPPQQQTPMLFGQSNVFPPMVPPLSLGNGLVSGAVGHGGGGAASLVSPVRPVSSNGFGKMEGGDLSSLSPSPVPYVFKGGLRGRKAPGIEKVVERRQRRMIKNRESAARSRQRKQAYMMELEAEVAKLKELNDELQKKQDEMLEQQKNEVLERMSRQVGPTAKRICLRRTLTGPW
UniProt P56270, sequence (whole entry, looked up): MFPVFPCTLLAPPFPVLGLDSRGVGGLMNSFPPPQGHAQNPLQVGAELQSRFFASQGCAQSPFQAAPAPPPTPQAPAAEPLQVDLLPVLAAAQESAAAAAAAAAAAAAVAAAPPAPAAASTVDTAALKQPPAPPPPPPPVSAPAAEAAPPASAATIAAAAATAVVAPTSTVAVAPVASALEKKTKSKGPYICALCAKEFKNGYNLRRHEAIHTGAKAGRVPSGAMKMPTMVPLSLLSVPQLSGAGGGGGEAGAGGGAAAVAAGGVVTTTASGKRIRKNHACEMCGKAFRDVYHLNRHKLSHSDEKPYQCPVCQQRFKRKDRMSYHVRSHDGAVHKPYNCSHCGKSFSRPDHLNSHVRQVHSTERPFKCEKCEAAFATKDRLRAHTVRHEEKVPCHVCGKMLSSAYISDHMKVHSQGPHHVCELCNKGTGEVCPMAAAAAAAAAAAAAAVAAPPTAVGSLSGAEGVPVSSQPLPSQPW
UniProt Q8GYY1, sequence (whole entry, looked up): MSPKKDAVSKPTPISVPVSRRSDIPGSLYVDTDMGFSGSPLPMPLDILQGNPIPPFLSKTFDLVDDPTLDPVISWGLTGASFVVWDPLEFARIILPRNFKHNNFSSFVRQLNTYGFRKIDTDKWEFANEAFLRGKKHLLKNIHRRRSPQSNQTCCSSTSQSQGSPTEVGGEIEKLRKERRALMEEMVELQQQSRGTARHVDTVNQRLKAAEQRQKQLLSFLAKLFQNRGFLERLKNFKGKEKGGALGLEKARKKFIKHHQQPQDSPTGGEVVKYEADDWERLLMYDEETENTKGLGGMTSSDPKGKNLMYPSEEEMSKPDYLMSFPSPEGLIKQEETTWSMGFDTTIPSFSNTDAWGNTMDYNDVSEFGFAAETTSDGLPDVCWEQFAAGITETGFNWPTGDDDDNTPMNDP
UniProt Q14934, sequence (whole entry, looked up): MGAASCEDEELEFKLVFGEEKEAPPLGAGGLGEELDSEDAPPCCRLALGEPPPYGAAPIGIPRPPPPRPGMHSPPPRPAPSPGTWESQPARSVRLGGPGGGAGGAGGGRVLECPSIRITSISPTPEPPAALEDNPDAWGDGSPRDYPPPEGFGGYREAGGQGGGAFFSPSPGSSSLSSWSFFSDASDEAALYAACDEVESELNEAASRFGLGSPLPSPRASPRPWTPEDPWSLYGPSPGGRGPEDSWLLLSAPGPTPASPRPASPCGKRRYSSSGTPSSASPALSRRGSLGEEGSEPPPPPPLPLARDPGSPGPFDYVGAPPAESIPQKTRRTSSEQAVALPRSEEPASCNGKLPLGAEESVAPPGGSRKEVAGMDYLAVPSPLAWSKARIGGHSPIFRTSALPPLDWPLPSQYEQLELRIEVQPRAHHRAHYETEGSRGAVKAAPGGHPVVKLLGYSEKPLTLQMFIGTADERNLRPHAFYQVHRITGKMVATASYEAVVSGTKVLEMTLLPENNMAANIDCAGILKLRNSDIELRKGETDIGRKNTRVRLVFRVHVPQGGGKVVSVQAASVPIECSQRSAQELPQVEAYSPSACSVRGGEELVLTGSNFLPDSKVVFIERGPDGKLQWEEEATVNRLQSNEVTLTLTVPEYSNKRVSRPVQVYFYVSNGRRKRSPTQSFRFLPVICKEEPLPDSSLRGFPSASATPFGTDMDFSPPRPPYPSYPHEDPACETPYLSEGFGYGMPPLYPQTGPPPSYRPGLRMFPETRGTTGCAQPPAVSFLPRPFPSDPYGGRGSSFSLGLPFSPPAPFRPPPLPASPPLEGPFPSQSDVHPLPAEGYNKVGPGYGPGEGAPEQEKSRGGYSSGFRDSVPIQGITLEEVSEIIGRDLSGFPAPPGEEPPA
UniProt Q6NS38, sequence (whole entry, looked up): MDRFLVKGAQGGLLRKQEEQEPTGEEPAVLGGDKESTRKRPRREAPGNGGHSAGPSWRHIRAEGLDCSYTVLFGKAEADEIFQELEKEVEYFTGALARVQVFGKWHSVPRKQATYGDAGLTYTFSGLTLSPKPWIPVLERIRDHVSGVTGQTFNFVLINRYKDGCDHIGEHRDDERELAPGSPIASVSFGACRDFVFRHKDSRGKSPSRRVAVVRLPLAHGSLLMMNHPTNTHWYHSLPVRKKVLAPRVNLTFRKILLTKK

`GGGUUGCGGAGGGUGGG (G-quadruplex RNA (Homo sapiens); G4)` — result for binding: “binds” (DHX36; EMSA; folded RNA).
For `CCGGTTAGTCAATGATCTGTCACGTGTAAGGATTTAGCTGATATGA (dsDNA)`, binding read “binds” (COL domain class transcription factor (Malus domestica, UniProt D9ZIW3); EMSA; double-stranded DNA, one strand shown).
`CTTCCTCCAGATGAGCTCATGGGTTTCTCCACCAAGGAAGTTTTCCGCTGGTTG (dsDNA)` — result for binding: “binds” (NFATC4 400-744 (Homo sapiens, UniProt Q14934); EMSA; double-stranded DNA, one strand shown).
For `TCACGCGGGATCAATGTGTTCTTTCAGCTCCGGTCACGCTGACCAGGAATACCTCACTACC (dsDNA; one 5-methyl-dC opposite G)`, binding read “binds” (ROS1 1-1393 (Arabidopsis thaliana, UniProt Q9SJQ6); EMSA; double-stranded DNA, one strand shown; 130 nM).
`GGUUGAAGGAGACGACC (structured RNA)`: binding “no binding” (Putative PAS/PAC sensor protein full length assumed; 32P well-retention assay; folded RNA; together with: blue light).
Under binding, `UUGCGGAGGGUGGGCCUGGGAGGGGUGGUGGCCAUUUUUU (G-quadruplex RNA (Homo sapiens); G4)` is recorded as “binds” (DHX36; EMSA; folded RNA).
`AACATCT (ssDNA)` — result for binding: “binds” (YBX1; ITC; single-stranded DNA).
For `CCGGGTAAATGCGCG (dsDNA; 1-methyladenine, 2-aminopurine)`, binding read “binds” (ALKBH2 56-261 (Homo sapiens, UniProt Q6NS38); 2-aminopurine fluorescence; double-stranded DNA, one strand shown).
For `GGGUUGCGGAGGGUGGGCCU (G-quadruplex RNA (Homo sapiens); G4)`, binding read “binds” (DHX36; EMSA; folded RNA).
`GTAGGAGGCGCGGCTGCCACGAGACGAGGTACGTGGCCCCCATGCAGCAC (dsDNA)`: binding “binds” (BZIP23 1-357 (Oryza sativa, UniProt Q6Z312); EMSA; double-stranded DNA, one strand shown).
`GGGAGGACGAUGCGGUACAGCAGCGAUGCCGUAGUUCUCAGGUCGGAUUCGCAAACAGACGACUCGCUGAGGAUCCGAGA (stem-loop RNA; stem loop)`: binding “binds” (Putative PAS/PAC sensor protein full length assumed; RiboGreen well assay; folded RNA; residual dark binding, together with: blue light).
`CCCACTTTCCAGAACTTTCACGG (dsDNA)`: binding “binds” (HSFA3 full length assumed (Arabidopsis thaliana, UniProt Q8GYY1); EMSA; double-stranded DNA, one strand shown).
For `GGUUGAAGCACACGACC (structured RNA)`, binding read “no binding” (Putative PAS/PAC sensor protein full length assumed; 32P well-retention assay; folded RNA; together with: blue light).
Under binding, `AAUUGCUACCCAAUGCCUGGCCCAAGGGCAUUCCCAAAGCUUA (ssRNA)` is recorded as “binds” (Pcbp1 full length assumed (Mus musculus, UniProt P60335); EMSA; RNA).
`DNA 1 CAACGTCATAGACGATTACATTGCTACATGGAGCTGTCTAGAGGATCCGA / DNA 2 GTCGGATCCTCTAGACAGCTCCATGATCACTGGCACTGGTAGAATTCGGC / DNA 3 TGCCGAATTCTACCAGTGCCAGTGATGGACATCTTTGCCCACGTTGACCC / DNA 4 TGGGTCAACGTGGGCAAAGATGTCC / DNA 5 TAGCAATGTAATCGTCTATGACGTT (dsDNA; four-way junction, one nick)`: binding “binds” (hel308; EMSA; folded DNA).
Under binding, `AACAACT (ssDNA)` is recorded as “binds” (YBX1; ITC; single-stranded DNA).
With `GCCCTGAAAGATTATGGAATGCGATTAGGGTAAAGGAAGAGAGCATAATCTTTCAGGGC (hairpin DNA; hairpin, 16 bp stem, 27 nt loop)` the Kd was 0.57 ± 0.14 nM (topA full length assumed R173A (Escherichia coli, UniProt P06612); fluorescence anisotropy; folded DNA; together with: EDTA).
For `GGGAGGACGAUGCGGUCCCUACGGAAGACGAUCGUCUUUUCCUUGGCUAGUCAAGCAGACGACUCGCUGAGGAUCCGAGA (stem-loop RNA; stem loop)`, binding read “binds” (Putative PAS/PAC sensor protein full length assumed; RiboGreen well assay; folded RNA; together with: blue light).
`ATCGATAGTCTCTAGACAGCATGTCCTAGCAAGCCAGAATTCGGCAGCGT (dsDNA)` — result for binding: “no binding” (hel308; EMSA; double-stranded DNA, one strand shown).
`TGACCTGGCCGCCGTCCCCC (dsDNA)`: binding “binds” (AP2/ERF domain-containing protein; EMSA; double-stranded DNA, one strand shown).
Under binding, `DNA 1 ATCGATAGTCTCTAGACAGCATGTCCTAGCAAGCCAGAATTCGGCAGCGT / DNA 2 TAGCTATCAGAGATCTGTCGTACAGG (DNA; 3' ssDNA tail, 25 nt displaced strand)` is recorded as “binds” (hel308; EMSA).
`GTATACCTGCAGCTGAGGCGAGCCGTTGGTGTGGATGGCAGGGGCAGGATTCGACTCTAGAGCGCA (ssDNA; stem-loop)` — result for binding: “no binding” (FGFR2 22-377 (Homo sapiens, UniProt P21802); EMSA; single-stranded DNA; together with: Mg2+ 5 mM).
`GGGAGGACGAUGCGGUACAGCAGCGUUGCCAAAAAACGUCCACCUCAGGGAUUGUCAGACGACUCGCUGAGGAUCCGAGA (stem-loop RNA; stem loop)` — result for binding: “binds” (Putative PAS/PAC sensor protein full length assumed; RiboGreen well assay; folded RNA; residual dark binding, together with: blue light).
Under binding, `RNA 1 GGGUAAUGCCCCUCCCCUCUCACACCUCCGGGAUCAGUGACCGGAGGGCGGUCGGGGAGGGGACACCU / RNA 2 GGGUUUAGACCGUCGUGAGAGA (dsRNA (Pyrococcus abyssi); guide:target duplex)` is recorded as “binds” (CBF5/NOP10 (Pyrococcus abyssi); EMSA; folded RNA).
For `AACUUGAAGCAGACGAGUG (structured RNA)`, binding read “binds” (Putative PAS/PAC sensor protein full length assumed; 32P well-retention assay; folded RNA; together with: blue light).
Under binding, `AGGGCGGTGTGGGAAGAGGGA (G-quadruplex DNA (Homo sapiens))` is recorded as “binds” (MAZ (Homo sapiens, UniProt P56270); EMSA; folded DNA).
Under binding, `GGGUUGCGGAGCGUGCGCCUGCGAGCGGUGGUGGCCAUUUUUU (ssRNA)` is recorded as “no binding” (DHX36; EMSA; RNA).
For `DNA 1 CAACGTCATAGACGATTACATTGCTACATGGAGCTGTCTAGAGGATCCGA / DNA 2 GTCGGATCCTCTAGACAGCTCCATGATCACTGGCACTGGTAGAATTCGGC / DNA 3 TAGCAATGTAATCGTCTATGACGTT (dsDNA; partial fork, lagging strand only)`, binding read “binds” (hel308; EMSA; folded DNA).
`GGUUAAAGCAGAUGACC (structured RNA)` — result for binding: “binds” (Putative PAS/PAC sensor protein full length assumed; 32P well-retention assay; folded RNA; together with: blue light).
For `AAUUGCUAACCAAUGCCUGGCCCAAGGGCAUUCCCAAAGCUUA (ssRNA)`, binding read “no binding” (Pcbp1 97-162 (Mus musculus, UniProt P60335); EMSA; RNA).
For `AAGCCCGGCACCCACAACCAGCTTTCTC (dsDNA)`, binding read “binds” (AP2/ERF domain-containing protein; EMSA; double-stranded DNA, one strand shown).
Under binding, `UUUUCUUUUUUCUUAUUCUUAUU (ssRNA)` is recorded as “binds” (NAB3 321-415 N361A (Saccharomyces cerevisiae, UniProt P38996); fluorescence anisotropy; RNA).
Under binding, `GGGAGGACGAUGCGGUAGGGUCCUGCCUGUUGCGAUCCUGGGCAUGGUUUAAGCAGACGACUCGCUGAGGAUCCGAGA (stem-loop RNA; stem loop)` is recorded as “binds” (Putative PAS/PAC sensor protein full length assumed; 32P well-retention assay; folded RNA; together with: blue light).
Under binding, `DNA 1 GTCGACCAGCTGAGTCGACCAGCTG / DNA 2 CAGCTGGTCGAC / DNA 3 CAGCTGGTCGAC (dsDNA; nicked, N6-methyl-dA)` is recorded as “binds” (YTHDF1 370-559 (Homo sapiens, UniProt Q9BYJ9); pull-down; double-stranded DNA).
`GCCCTGAAAGATTATGGAATGGGATTAGGGTAAAGGAAGAGAGCATAATCTTTCAGGGC (hairpin DNA; hairpin, 16 bp stem, 27 nt loop)` gave a Kd of 0.5 ± 0.02 nM (topA full length assumed (Escherichia coli, UniProt P06612); fluorescence anisotropy; folded DNA; together with: EDTA).
The Kd of `GGAUUGUUACUGAUAAAGCAGGCAAAACC (ssRNA; hairpin, two internal loops)` is reported as 1800 ± 720 nM (licT 1-56 R27A (Bacillus subtilis, UniProt P39805); SPR; folded RNA).
